Measurements pooled from the literature.
Each numbered part is a random draw from the data of one study; scales do not carry over between parts. Positions count from the first letter of the parent shown.

Study 1
Target: vanadate, free oxyanion
Method: microfluidic competitive inhibition
Sample: in vitro, cell-free expressed
Tested at: not given
Notes: derived from inhibition constants, unchanged parent 676 nM
Direction: lower = stronger binding
Starting sequence: PafA, mature enzyme, eGFP fusion (Elizabethkingia meningoseptica, UniProt Q9KJX5); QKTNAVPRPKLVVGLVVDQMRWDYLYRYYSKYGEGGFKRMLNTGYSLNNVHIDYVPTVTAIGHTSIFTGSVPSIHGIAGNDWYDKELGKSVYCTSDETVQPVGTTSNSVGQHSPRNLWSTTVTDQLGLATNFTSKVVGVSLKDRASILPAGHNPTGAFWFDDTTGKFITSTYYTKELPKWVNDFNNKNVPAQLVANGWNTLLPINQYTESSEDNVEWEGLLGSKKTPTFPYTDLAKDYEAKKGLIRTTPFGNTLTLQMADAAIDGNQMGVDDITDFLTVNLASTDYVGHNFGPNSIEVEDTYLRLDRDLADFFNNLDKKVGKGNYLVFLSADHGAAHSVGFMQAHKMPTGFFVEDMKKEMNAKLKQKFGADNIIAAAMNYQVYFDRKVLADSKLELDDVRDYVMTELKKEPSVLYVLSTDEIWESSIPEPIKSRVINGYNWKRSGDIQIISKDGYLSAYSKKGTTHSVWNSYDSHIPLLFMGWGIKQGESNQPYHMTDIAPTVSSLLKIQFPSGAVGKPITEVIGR
Substitution	oxyanion analog dissociation constant
K225G	568 nM
V99G	595 nM
S330V	1.18 µM
Q510V	800 nM

Study 2
Target: Histone acetyltransferase KAT6A, winged helix 1, GST fusion (KAT6A, Homo sapiens, UniProt Q92794, residues 1-85)
Method: protein binding microarray
Molecule type: double-stranded DNA, one strand shown
Sample: in vitro
Tested at: not given
Notes: 8-mer, flanks averaged, mean of 2 arrays, mostly near background
Reference: not given
Direction: higher = stronger binding
Residues (chain): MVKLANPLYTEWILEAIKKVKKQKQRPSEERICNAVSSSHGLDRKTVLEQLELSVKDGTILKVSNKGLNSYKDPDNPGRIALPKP
Oligonucleotide	E-score
GGAGGTAC	0.00507
GGACAGGA	-0.13
ACCTAGTC	-0.0756
AGCACTAT	-0.083
CATAGAGG	-0.155
CACATGGG	-0.0974
ATGGTTCC	-0.0281
GCCTTCGC	0.094

Study 3
Target: CCNA2, cyclin fold, Cln2 fusion (human)
Method: yeast growth competition, sequencing
Sample: yeast
Notes: strong parent motif
Reference: not given
Direction: higher = stronger binding
Starting sequence: viral docking peptide; TSVRRALFTGGSD; partner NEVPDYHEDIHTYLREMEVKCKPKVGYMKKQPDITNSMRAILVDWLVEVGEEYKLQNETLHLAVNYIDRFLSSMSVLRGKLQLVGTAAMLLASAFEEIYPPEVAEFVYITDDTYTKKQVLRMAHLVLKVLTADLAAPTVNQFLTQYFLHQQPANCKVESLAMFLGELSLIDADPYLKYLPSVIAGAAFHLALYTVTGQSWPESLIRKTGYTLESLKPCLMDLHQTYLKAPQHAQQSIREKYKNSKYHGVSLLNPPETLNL
Substitution	normalised enrichment score
TSVRRALFTEGSD [G10E]	6.51
TSVRRALFTWGSD [G10W]	5.75
TSVRRALFTGDSD [G11D]	5.92
TSVQRALFTGGSD [R4Q]	2.61
TSVRWALFTGGSD [R5W]	0.892
TSVRRALFTGHSD [G11H]	6.32
TSVRKALLTGGSD [R5K F8L]	0.459
TSVERALFTGGSD [R4E]	0.104
TLVRRALFTGGSD [S2L]	5.6
TSVMRALFTGGSD [R4M]	1.49
TSVRCALFTGGSD [R5C]	2.36
TSVRRALITGGSD [F8I]	0.83
TSVRRALFNGGSD [T9N]	6.19

Further values, each from its own experiment
Substance	target	assay	test system	setting	how to read	quantity	result
PhoQ, residues 284 288 289 292 302 303 TAVSDG	PhoP, residues 12 14 15 18 19 NQAHL (Escherichia coli, UniProt P23836)	Sort-seq, measured: YFP reporter	E. coli	PhoQ-PhoP variant library, added: 10 µM Mg2+	reference: high Mg2+ state, higher = stronger signaling	fold induction	1.24

Excerpt of the above (study 3):
Substitution	normalised enrichment score
TSVRRALFNGGSD [T9N]	6.19
TSVRRALITGGSD [F8I]	0.83
TSVRRALFTEGSD [G10E]	6.51
TSVRRALFTGDSD [G11D]	5.92
